Assay results of several laboratories.
A part holds a random share of what one study measured.

Study 1 — technique: RNA Bind-n-Seq; form: RNA; sample: in vitro; tested at: 365 nM; relative to: no-protein control; direction: higher = stronger binding; quantity: RBNS enrichment (R)
Target: RNA binding protein fox-1 homolog 2, RRM domain, GST-SBP tag (RBFOX2, Homo sapiens, UniProt O43251-10, residues 100-194)
Notes: natural RNA segment, single round, ends assumed
Constant ends, left off below: GGGAGUUCUACAGUCCGACGAUC … UGGAAUUCUCGGGUGCCAA
Target sequence (chain): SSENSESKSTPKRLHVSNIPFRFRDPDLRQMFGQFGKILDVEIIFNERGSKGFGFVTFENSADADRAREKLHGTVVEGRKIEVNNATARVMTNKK
GGCAGCUGCUGACUCAACUCUGGGCUCCCUGCCAUCUGUGGAGUACUUUUUUCCUGUUGUGUUGAAUACUGGAGAAAUAGAAGGUUCAAGAUAGAGGCAGACCUGACUGU: 0.406
AGUGCUACAAGCCCUCAGGAGCUCAAGAUAGCAGAGUCCUUCUUUCAAAGCCCAGCUUAGUGAGGACUUGGGUCAACUUCAGUAAGCUUCCUCUGAAGCAACUGAAGGCC: 0.222
GUUCCAAGGAAACAAUUAUUGCCUGAUGACCACUUCCAUUUUGUAUACACUCUUUGGUUCGUAUAGGCCAUAUUCCAACUGGCUUUUUAGUAAUAGAAAUCCAGUAUAUA: 0.26
UAUAUUCAAAGGAUAUUUAUAUUGGUGAUAUUUAAAUUAACACAGACAUGCAAAGCAUUCUUUUGCAUGUCUUUAUUUAAUUGUGGUUUUAUUAUCAAAAUUAUAUUUCU: 0.694
GAGGCAUACACUUUUUACAGAUGGACAAAAGCUCUGGAACCCUGUGGCUUCAAAUCCUUUGGGAAGGGUGACUGUUGUUUCCCCUACACACAGUGUAAGCCGGAAUGGGA: 0.301
UACCGAGCUACUGGUCCUAAGAUGUUUCAGACUUAAAGCAAAUGCAUGUGUUACACCCAUCCCGUUUACCAUAUUACCAAAUCCUCACAAGAGGUUUCAAGGAACUGUUU: 7.59
CUGCACCAUCAUUGAGGGUUCACACCGCUGUACCACUGUACCACUGCUGUGGGUGGACACAGCAACAUGCCUUCCACCUGAUUUUUAAGAUUUUUUUUUUUUUUACUCAA: 1.05
UUUGCAUUCUAGUUUGAAUAGUUUGUAUUGAAAUUGGAUUCCUAUCUUGUGUAUGUUUUUGGUGCGUAAAAGGGAAAAAUUGGUGUCAUUACUUUUGAAAUUUGCAGGAC: 2.12
GCAUUUUCUUCCCUAAAACCAACAGUGUCCCACUGACCUCCCCAAGUGUUUGCUGCGUGGCAGAUUUCCUGUUCUUGUUCGCAGUUUGCCGACUGAAGAGUGUGGGAUUU: 1.23
UGGCAUCGCCCUGUCCUGCCUUGGCCAGAAGCCUGGAGCUUUGGUUUGAGGAGGUAGAGAUAUGUGUAUCCAUAGGAAGAGAUCUGUCAGAACAGGCAGCUGUUGAGCUC: 0.336
AGUCUCGUUCUGUUGUGUUCUGAGAAGAUGCCUGAGGCAGUAUGGGAGUUUCAACACCCCUGCUGUCCCUUUAACUUGUAUUGUCCUAGACCCUGUCCUGGAAGUUAGAG: 0.558
CGUGGGAUUGCUUCCACCAGUGUGUUUCUGAGACUUCUCCUUAUCUUCCAGGCCAAAGUAUGUUGCUGCUUCCUGUCUCCACUGGUCCCCACCUACCCUGGCACUUGCCC: 0.48

Study 2 — technique: protein binding microarray; form: double-stranded DNA, one strand shown; sample: in vitro; tested at: not given; relative to: not given; direction: higher = stronger binding; quantity: E-score
Target: Histone acetyltransferase KAT6A, winged helix 2, GST fusion (KAT6A, Homo sapiens, UniProt Q92794, residues 85-181)
Notes: 8-mer, flanks averaged, mean of 2 arrays, mostly near background
Residues (chain): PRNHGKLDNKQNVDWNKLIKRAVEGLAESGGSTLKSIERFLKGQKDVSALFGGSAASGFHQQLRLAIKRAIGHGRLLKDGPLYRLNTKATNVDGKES
ATTAAAAG: 0.0419
ATATGAGC: -0.0223
ACGGACTC: -0.0907
AGTCGAGA: -0.0651
AGACAAGG: 0.0631
ACTGCTGA: -0.0226
ACTTGGCT: -0.166
CACAATTC: 0.0437
AGCCGACA: 0.0839
ATGGTGGG: 0.0434
CCATAGGG: -0.112
GGGGTTGA: -0.0591
CGTCGCCA: 0.146
AAACATAG: -0.091
ACGACTTC: -0.142
GGTTTTCA: 0.105
GTATGTCA: -0.0585
ATTTTACG: 0.0527
ATGGGTCG: -0.102

Study 3 — technique: protein-binding microarray; form: double-stranded DNA, one strand shown; sample: in vitro; tested at: 940 nM top; notes: 60-bp whole probe; together with: salmon DNA 0.4 mg/ml; relative to: random background probes; direction: higher = stronger binding; quantity: fitted relative affinity; constant ends, left off below: GCCTAGCAC … GTCTTGATTCGCTTGACGCTGCTG
Target: Interferon regulatory factor 5, full length, phosphomimetic (IRF5, Homo sapiens, UniProt Q13568-2, residues 1-514, S451D/S453D/S456D/S462D)
ACAGCCTTTCTAACTTGAAAGTGCTAG: -0.0428 z-score
TTTGATTTCAGTTCCGATTAGTGCTAG: 2.57 z-score
GACGGTTACGGTATCGGGACGTGCTAG: 1.76 z-score
GGCGGTCTCGGTATCGGGACGTGCTAG: 5.59 z-score
GACGGTATCGGGTTTCGTGACGTGCTA: 4.62 z-score
CTGTTTTTGCTTTCTTTATGGTGCTAG: 2.98 z-score
GACCAACTGAGTTTCGAGACGTGCTAG: 3.47 z-score
TTTTCATTATTGTGTCAACTTGTGCTA: 1.48 z-score
TCAGTTCTGCTTTGCCTACTGTGCTAG: 0.0391 z-score
GACGGTATCGGTCTCGGAACGTGCTAG: 8.66 z-score
TTAGGAGTGCTTATCCTTTAGTGCTAG: -0.397 z-score
TTAGGTCTGGACTATCGGTTAGTGCTA: -0.208 z-score
TTAGGTTTCGGGTATGGGTTAGTGCTA: 10.9 z-score
GACGGTTTCTGTTTCGGGACGTGCTAG: 7.14 z-score
GACGGTATCCGTATCGGGACGTGCTAG: 0.938 z-score
TTGGAACTGGGGACTGGATTAGTGCTA: -0.332 z-score
GACGATCTCAGTCTCGCGACGTGCTAG: 0.382 z-score
TTAGGTTCCCTTTTCCTGTAGTGCTAG: 0.475 z-score

Study 4 — technique: competition protein-binding microarray; form: double-stranded DNA, one strand shown; sample: in vitro; tested at: 2 µM; together with: Cbf1 competitor, 0.05 µM; direction: higher = stronger binding; quantity: fluorescence intensity; constant ends, left off below: … GTCTTGATTCGCTTGACGCTGCTG
Target: Phosphate system positive regulatory protein PHO4, full length, GST-tagged (PHO4, Saccharomyces cerevisiae, UniProt P07270, residues 1-312)
Notes: whole 60-bp probe, lowest competitor level
Target sequence (chain): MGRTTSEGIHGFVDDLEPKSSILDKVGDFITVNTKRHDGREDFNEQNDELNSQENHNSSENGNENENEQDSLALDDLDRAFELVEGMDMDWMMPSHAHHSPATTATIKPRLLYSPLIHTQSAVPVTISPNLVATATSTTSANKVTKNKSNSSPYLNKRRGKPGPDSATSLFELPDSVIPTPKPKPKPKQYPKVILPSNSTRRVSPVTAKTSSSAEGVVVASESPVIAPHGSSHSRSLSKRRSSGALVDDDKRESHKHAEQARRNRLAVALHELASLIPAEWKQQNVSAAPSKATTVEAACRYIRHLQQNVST
TTCTTCTCCACCTTCCTCGTGATGGTCAGAGCCATC: 8540 a.u.
TTTGACCTCTTCGACCACGTGTGTTAGCTGGTCATT: 19500 a.u.
AAATTACTAAGTTGGTTCGTGGGTGACGCCGTATGA: 6010 a.u.
TGCGCAACAACTTGCGGAGTGGGTGTATGTCTAGAA: 4450 a.u.
TTGCCGTTGCAAGTGAACGTGCAAATGTATTTATAT: 11800 a.u.
AACCACTCGTCGAGTCACACGGAGAGTTGGCCATGA: 4610 a.u.
AAATTACTAAGTTGGTGCGTGGGTGACGCCGTATGA: 8230 a.u.
AGCAGGAATCATACCCACGCATCTCATTTTGCGTTA: 8410 a.u.
TGCAGAACGCAAAATCGCGTGCGGAAGGAACGAGGA: 8460 a.u.
CTTACCGTCCACTTTAACGTGACGGAGCATCAAGAT: 5310 a.u.
CTAACGAAGGTTTGGAGAGTGGGTGACAAGCCAAGT: 3860 a.u.
GATGTAATGTCCACACAGGTGATGGAATCATCCATT: 4870 a.u.
CATACCCAACCTTGTCACTTGACTTAAGATATTTGT: 3520 a.u.
CGGGGTTAAGTTTGTCACTTTACTTGCTTGCAGCAG: 3160 a.u.
CTGCCTAACAGGATGCACATGTTTGTTTATTGCTGA: 12400 a.u.
CTAACGAAGGTTTGTCACTCGACTTACAAGCCAAGT: 3180 a.u.
AAATTACTAAGTTTTCACGTGAGATACCCCGTATGA: 10600 a.u.
CTGAAGTTGACCGGCCACGGGATTCGTCAAGTATGT: 8150 a.u.
TGTGGACAGGGTAGATTCGGAGCCGACGCTATAATT: 2430 a.u.
TCGCATAGACGAACCCGCGTGCGATTGGTAAATTGC: 8260 a.u.
AAAGCGGTAATTTGTCACTTGACTTCACATATCTAT: 3390 a.u.
ATATGTGTGCGGTTCCACGGGCAGTCGTTTATGTTG: 8190 a.u.
GTCTTGTCTCATTGCTGGGTGGGTGTCCCCACTTCA: 5600 a.u.
CGAAACATAACGATAAACGTGGTGAAGTTTTCGATT: 11600 a.u.

Study 5 — technique: RNA Bind-n-Seq; form: RNA; sample: in vitro; tested at: 200 nM; notes: whole 134-nt RNA, ends assumed; together with: 150 mM LiCl; relative to: input library; direction: higher = stronger binding; quantity: log2 enrichment; all molecules: 7-deaza-guanosine replaces G
Target: Fragile X messenger ribonucleoprotein 1, C-terminal low-complexity region (Fmr1, Mus musculus, UniProt P35922)
Constant ends, left off below: GGGAGUUCUACAGUCCGACGAUC … UGGAAUUCUCGGGUGUCAAGG
GCAGGAAGUAAAAACAAAUGGAAAUGCUUCGGAUAGUGGCAGGGGGGGGGGUUGCUAAGGAAAGGGUGGGAUGGGAGUGGGUAAAGAGUU: 1.6
UAACUUUAGAGGAGGAUCUGAUGGACAUGGCAGUGGACGUGGAUUUGGGGAUGGCUAUAAUGGGUAUGGAGGAGGACCUGGAGGUGGCAA: -0.151
UGGCCCUGGUGGCAUGCGGGGAGGAAGAGGUGGCCUCAUGGAACGUGGUGGUCCCGGUGGAAUGUUCAGAGGUGGCCGUGGUGGAGACAG: -0.267
AUAUGAGUAAAAUCUGUCCCUUUUUCCCCCUUUGAAUGAGGUCUUCCAUGUUUGAGGGAAAGUCUUGCACUAUUGCAUAUAUUUUGGGGA: 1.44
AAGUCCUGUGCUACACAUCGUAUGUACCGAAUCGGCCCCGGGGCCCCGGCCCCGGGGAAAGUAUUAUGUUACGCCGUUCGGAUCUGCACU: -3.07
ACCACUGCUACAGUCACCACCACCCAGGCCUCCUAUGCAGCUCAGUCUGCAUAUGGCACUCAGCCUGCUUAUCCAGCCUAUGGGCAGCAG: 1.29
GUCCUGUGCUACACAUCGUAUGUACCGAAUCGGGGUUUUUGGGGAGGGGAAAAAGGGGAAAGUAUUAUGUUACGCCGUUCGGAUCUGCAC: 0.0202
AGUCCUGUGCUACACAUCGUAUGUACCGAAUCGGAAAAAAAGGUUUGGAAAAAAAGGAAAGUAUUAUGUUACGCCGUUCGGAUCUGCACU: -2.74
UAACUUUAGAGGAGGAUCUGAUGGAUAUGGCAGUGGACGUGGAUUUGGGGAUGGCGAUAAUGGGUAUGGAGGAGGACCUGGAGGUGGCAA: 1
UCCUGUGCUACACAUCGUAUGUACCGAAUCGGGGAGGGGUUUUUUUGGGGAAAAAGGGGAAAGUAUUAUGUUACGCCGUUCGGAUCUGCA: -0.427
UCCUCAAGUCCUGUGCUACACAUCGUAUGUACCGAAUCGGGCGGCGGGCGGAAAGUAUUAUGUUACGCCGUUCGGAUCUGCACUUCCAGC: 0.293

Excerpt of the above (study 2):
AGCCGACA: 0.0839
ATGGTGGG: 0.0434
CCATAGGG: -0.112
GGGGTTGA: -0.0591
CGTCGCCA: 0.146
AAACATAG: -0.091
ACGACTTC: -0.142
GGTTTTCA: 0.105
GTATGTCA: -0.0585
ATTTTACG: 0.0527
